Experimental data of several laboratories.
Protocols differ between the studies behind these lines. Numbers after ± are the reported error.
gdpP residues 84-659: gdpP, residues 84-659 (Bacillus subtilis, UniProt P37484)
ALB: Albumin (ALB, Bos taurus, UniProt P02769)
KCNQ2: Potassium voltage-gated channel subfamily KQT member 2 (KCNQ2, Homo sapiens, UniProt O43526)

Compound | target | test | system | setting | how to read | measurement | result
Nc1nc2c(O)cc(N3CC3)cc2s1 | Histone-lysine N-methyltransferase, H3 lysine-36 specific, SET domain (NSD1, Homo sapiens, UniProt Q96L73) | mass spectrometry | NSD1 SET domain 1 µM | 10 µM, 8 h, 32 °C | – | covalent engagement | 32%
O=C(O)c1cc(CCc2cc(O)ccc2O)ccc1O | CRISPR-associated endonuclease Cas9/Csn1 (cas9, Streptococcus pyogenes serotype M1, UniProt Q99ZW2) | enzyme activity | – | concentration not given | – | activity | inactive
CC(C)C[C@@H](NC(=O)[C@H]1CCCN1C(=O)[C@H](N)CC(=O)O)C(=O)N[C@H](CCCCN)C(=O)N[C@H](C)C(=O)N[C@H](CCCNC(=N)N)C(=O)N[C@H](Cc1c[nH]cn1)C(=O)N[C@@H](C(=O)N[C@H](CO)C(=O)N[C@@H](C(=O)N[C@H](Cc1c[nH]c2ccccc12)C(=O)N[C@H](Cc1ccc(O)cc1)C(N)=O)C(C)C)[C@H](C)O | Microtubule-associated protein tau, PHF6 peptide (MAPT, Homo sapiens, UniProt P10636) | ThT fluorescence | – | 500 µM, room temperature, 50 µM tau | – | fibril formation inhibition | no inhibition
O=P1(O)OC[C@H]2O[C@@H](n3cnc4cncnc43)[C@H](O)[C@@H]2OP(=O)(O)OC[C@H]2O[C@@H](n3cnc4cncnc43)[C@H](O)[C@@H]2O1 | gdpP residues 84-659 | substrate, HPLC | – | 100 µM, 37 °C, upper limit if undegraded 24 h, together with: enzyme 1 µM | – | degradation rate | 0.11 ± 0.01 mol/min/mol enzyme
O[C@@H]1[C@@H](O)[C@H](O)C[C@H]2N[C@@H]12 | Exo-1,4-beta-xylosidase xlnD (xlnD, Emericella nidulans, UniProt Q5BAS1) | covalent inhibitor | Aspergillus nidulans | pH 4.5, ambient, together with: 4MU-β-D-xyloside | – | kinact | 0.0837 s⁻¹
Nc1nc2ncc(CNc3ccc(C(=O)N[C@@H](CCC(=O)NCCOCCOCCNC(=O)CN4CCN5CCN(CC4)CC(=O)[O][Al]([18F])[O]C(=O)C5)C(=O)O)cc3)nc2c(=O)[nH]1 | Folate receptor alpha (FOLR1, Homo sapiens, UniProt P15328) | radioligand saturation binding | CAL-51 xenograft homogenate | – | – | Bmax | 36 nM
Cc1cc(C2=CCN(CC3OCCO3)CC2)cc([N+](=O)[O-])c1N | 5-hydroxytryptamine receptor 2A (HTR2A, Homo sapiens, UniProt P28223) | calcium mobilisation, agonist | – | – | baseline: 5-HT | Emax | 23 ± 1.37%
NC(=NN=Cc1cccs1)[S][Ru+]([Cl])([P](c1ccccc1)(c1ccccc1)c1ccccc1)[P](c1ccccc1)(c1ccccc1)c1ccccc1.[Cl-] | ALB | fluorescence quenching | – | – | – | quenching rate constant | 8.04e+12 M⁻¹ s⁻¹
O=C(O)COc1ccc(Cl)cc1 | Chloride channel protein (Torpedo marmorata, UniProt P21564, C212S) | chloride current, inside-out patch clamp | – | 20 mM, step to -140 mV | – | fast deactivation time constant | 0.9 ms
O=C(Cc1ccc(F)cc1)N1CCN(Cc2noc(-c3cccc(Cl)c3)n2)CC1 | KCNQ2 | potassium current, activator, whole-cell patch clamp | CHO, stable | 20 µM | baseline: current before compound | current fold increase | 1.08 ± 0.06
CCC(C(=O)OC)C1N=C(c2ccc(Cl)cc2)c2cc(OC)ccc2-n2c(C)nnc21 (stereo not shown) | human BET bromodomains L/A mutant | binding, isothermal titration calorimetry | – | – | baseline: L/A mutant over wild type | selectivity ratio (average) | 160 fold
CSCC[C@H](NC(=O)[C@H](CCCNC(=N)N)NC(=O)[C@H](CO)NC(=O)[C@@H](NC(=O)[C@H](CC(=O)O)NC(=O)[C@H](CC(=O)O)NC(=O)CCCCCNC(=O)c1ccc2c(c1)C(=O)OC21c2ccc(O)cc2Oc2cc(O)ccc21)[C@@H](C)O)C(=O)N[C@@H](CCC(=O)O)C(=O)N[C@@H](CCCCN)C(=O)N[C@H](C(=O)N[C@@H](CC(=O)O)C(=O)O)C(C)C | Peptidyl-prolyl cis-trans isomerase FKBP4 (FKBP4, Homo sapiens, UniProt Q02790) | binding, fluorescence polarization | – | pH 7.4, full-length protein | baseline: wild-type Hsp90α tracer | affinity decrease | ≥ 3 fold
O=C(C[P+]([Au-][Cl])(c1ccccc1)c1ccccc1)[O][Ti+2][O]C(=O)C[P+]([Au-][Cl])(c1ccccc1)c1ccccc1.c1cc[cH-]c1.c1cc[cH-]c1 | PI3 kinases | inhibitor | – | up to 100 µM | – | PI3 kinase activity | inactive
CC(C)CC(=O)NC1CCCC1=O (stereo not shown) | HTH-type quorum-sensing regulator RhlR (rhlR, Pseudomonas aeruginosa, UniProt P54292) | reporter gene, agonist, rhlI-lacZ reporter | Escherichia coli | – | – | maximum activation | 100%
CC1=C(C)[C@@H](Oc2c(F)cc3c(C)cc(=O)oc3c2F)OC1=O | RMS3 (Lathyrus oleraceus, UniProt A0A109QYD3) | enzyme activity, substrate, DiFMU release | – | pre-steady state | – | K1/2 | 17.4 µM
Nc1ncnc2c1ncn2[C@@H]1O[C@H](COP(=O)(O)OP(=O)(O)OC[C@H]2O[C@@H](O)[C@H](O)[C@@H]2O)[C@@H](O)[C@H]1O | Protein mono-ADP-ribosyltransferase PARP14, macrodomain 2 (PARP14, Homo sapiens, UniProt Q460N5) | binding | – | – | – | ΔG | -7.27 kcal/mol
CN1CCc2cc(O)cc3c2[C@H]1Cc1ccc(O)c(O)c1-3 | Carbamate kinase (Giardia intestinalis, UniProt A8BB85) | enzyme activity, inhibitor, luminescence, ATP detection | Giardia lamblia | – | – | maximal inhibition | 90.7%

Compound | target | test | system | setting | how to read | measurement | result
CC[C@H](C)[C@H](NC(=O)[C@H](CC(=O)O)NC(C)=O)C(=O)N[C@H](C(=O)N[C@H](C(=O)N[C@@H](CCCNC(=N)N)C(=O)N[C@@H](Cc1ccc(O)cc1)C(=O)N[C@@H](CC(N)=O)C(=O)NCC(=O)N[C@@H](CCCCN)C(=O)N[C@H](C(=O)N[C@@H](Cc1c[nH]c2ccccc12)C(=O)N[C@@H](Cc1c[nH]c2ccccc12)C(=O)N[C@@H](CCCNC(=N)N)C(=O)O)C(C)C)[C@@H](C)O)[C@@H](C)O | Insulin (INS, Bos taurus, UniProt P01317) | isothermal titration calorimetry | – | pH 2.6, 25 °C | – | Ka, site 4 | 21600 M⁻¹
O=C([N-]c1nc2ccccc2s1)c1cnccn1.[Cl-].[Ru+2].c1ccc(P(c2ccccc2)c2ccccc2)cc1.c1ccc(P(c2ccccc2)c2ccccc2)cc1 | ALB | tryptophan fluorescence quenching | – | concentration not given | – | number of binding sites | 0.85
Cc1cc(C)nc(Sc2nc3sccn3c2[N+](=O)[O-])n1 | Procathepsin L (CTSL, Homo sapiens, UniProt P07711) | FRET | – | – | – | Hill slope | 1.33
c1ccc(CN2CCOCCOCCN(CCCCCCCCN3CCOCCOCCN(CCCCCCCCN4CCOCCOCCN(Cc5ccccc5)CCOCCOCC4)CCOCCOCC3)CCOCCOCC2)cc1 | Quinolone resistance protein NorA (Staphylococcus aureus, UniProt P0A0J7) | inhibitor | 1199B | 4 µM, 20 min | – | ethidium bromide accumulation | no effect
CC(=O)N[C@@H](CC(C)C)C(=O)N[C@@H](CCC(=O)O)C(=O)N[C@@H](Cc1c[nH]cn1)C(=O)N[C@@H](CC(=O)O)C(=O)Nc1ccc2c(C)cc(=O)oc2c1 | Caspase-10 (CASP10, Homo sapiens, UniProt Q92851) | substrate cleavage, substrate, fluorogenic AMC release | – | enzyme 0.25 activity units/µL | – | Vmax | 1040 ± 77.5 RFU/min
C=Cc1ccc(NC(=O)CSc2nnc(-c3cccnc3)n2CC)cc1 | Orco (Drosophila melanogaster, UniProt Q9VNB5) | calcium mobilization, agonist | HEK293 expressing Orco | – | baseline: VUAA1 maximum | efficacy | 57%
O=C(Nc1cccc(-c2nc3ncccc3o2)c1)c1cccc(F)c1 | Nucleoside transporter 1 (Plasmodium vivax, UniProt A5K8B0, D23E) | adenosine uptake, inhibitor | – | D23E mutant | baseline: D23E mutant over wild type | IC50 ratio | ~3.5 fold
CC(=O)NC(Cc1ccc(Br)c(Cl)c1)C(=O)N[C@@H](C)C(=O)N1CCC[C@H]1C(=O)N1CCC[C@H]1C(=O)N[C@@H](CCC(=O)O)C(=O)N[C@@H](Cc1c[nH]cn1)C(=O)N[C@@H](CO)C(=O)N[C@H](C(=O)N[C@@H](C)C(N)=O)[C@@H](C)OP(=O)(O)O (stereo partly shown) | Mitogen-activated protein kinase 1 (MAPK1, Homo sapiens, UniProt P28482) | enzyme activity, inhibitor | – | 10 µM | – | inhibition | 0.69%
CCN(Cc1ccccc1)C(=O)CCc1nc(CN2CCN(C(=O)Cc3ccc(OC)c(OC)c3)CC2)no1 | KCNQ2 | potassium current, activator, whole-cell patch clamp | CHO, stable | 20 µM | baseline: current before compound | current fold increase | 2.08 ± 0.1
Nc1ncc2ncn([C@@H]3O[C@@H]4COP(=O)(O)O[C@H]5[C@@H](O)[C@H](n6cnc7cnc(N)nc76)O[C@@H]5COP(=O)(O)O[C@H]4[C@H]3O)c2n1 | gdpP residues 84-659 | HPLC | – | concentration not given | baseline: c-di-AMP, higher = slower hydrolysis | hydrolysis rate fold decrease | 2.4
O=C(Nc1cccc(-c2nn[nH]n2)c1)c1cc(-c2ccccc2)cc(C(F)(F)F)c1 | CTX-M-27 beta-lactamase | surface plasmon resonance | – | – | – | Kd/Ki difference | ~4 fold
CC[C@H](C)[C@H](NC(=O)[C@H](CCC(=O)O)NC(=O)[C@H](CC(=O)O)NC(=O)c1ccc2c(c1)C(=O)OC21c2ccc(O)cc2Oc2cc(O)ccc21)C(=O)N[C@H](C(=O)N[C@@H](CC(N)=O)C(=O)N[C@@H](CCCCN)C(=O)N[C@H](C(=O)N[C@@H](CC(C)C)C(N)=O)C(C)C)C(C)C | yeast Vps4p L40D | fluorescence polarization | – | concentration not given | baseline: wild-type Vps4p | binding affinity | decreased
FC(F)(F)c1ccc(Nc2c3c(nc4ccccc24)CCCC3)cc1 | Cholinesterase (BCHE, Equus caballus, UniProt P81908) | enzyme activity, inhibitor | – | 100 µM | – | inhibition | -23.5%
CC(C)P(=S)(NP(=S)(C(C)C)C(C)C)C(C)C | Alpha-amylase (Bacillus subtilis, UniProt P00691) | tryptophan fluorescence, fluorescence quenching | – | 0.20 mg/mL, 298 K | – | maximum emission wavelength | 335 nm
Cn1cc(-c2cccc(CN3CCC4(CC3)COc3c4ccc4c3CN([C@H]3CCC(=O)NC3=O)C4=O)c2)cn1 | Eukaryotic peptide chain release factor GTP-binding subunit ERF3A (GSPT1, Homo sapiens, UniProt P15170) | degrader, HiBiT | HEK293 | 6 h | – | Dmax | < 20%
CC(C)CC(NC(=O)C(NC(=O)NC(C(=O)O)C(C)C)C1CCNC(=N)N1)C(=O)NCCCNC(C(=O)O)C(OC1OC(CN)C(O)C1O)C1OC(n2ccc(=O)[nH]c2=O)C(O)C1O (stereo not shown) | Phospho-N-acetylmuramoyl-pentapeptide-transferase (mraY, Aquifex aeolicus, UniProt O66465) | binding, isothermal titration calorimetry | – | wild type, without Mg2+ | – | ΔS | 6.5 ± 2 cal/mol/K
CS(C)(=O)=Nc1ccc(-c2ccc(-c3nc4cc(O[C@@H]5CO[C@H]6[C@@H]5OC[C@H]6O)[nH]c4cc3F)cc2)cc1 | PRKAA2/PRKAB1, with gamma1 (Homo sapiens, UniProt P54646+Q9Y478) | enzyme activity, activator | – | 60 min, 50% above basal activity, together with: ATP 50 µM | – | EC150 | 0.376 nM

For quick reference, copied from above:
Compound | target | test | system | setting | how to read | measurement | result
CC(=O)N[C@@H](CC(C)C)C(=O)N[C@@H](CCC(=O)O)C(=O)N[C@@H](Cc1c[nH]cn1)C(=O)N[C@@H](CC(=O)O)C(=O)Nc1ccc2c(C)cc(=O)oc2c1 | Caspase-10 (CASP10, Homo sapiens, UniProt Q92851) | substrate cleavage, substrate, fluorogenic AMC release | – | enzyme 0.25 activity units/µL | – | Vmax | 1040 ± 77.5 RFU/min
C=Cc1ccc(NC(=O)CSc2nnc(-c3cccnc3)n2CC)cc1 | Orco (Drosophila melanogaster, UniProt Q9VNB5) | calcium mobilization, agonist | HEK293 expressing Orco | – | baseline: VUAA1 maximum | efficacy | 57%
O=C(Nc1cccc(-c2nc3ncccc3o2)c1)c1cccc(F)c1 | Nucleoside transporter 1 (Plasmodium vivax, UniProt A5K8B0, D23E) | adenosine uptake, inhibitor | – | D23E mutant | baseline: D23E mutant over wild type | IC50 ratio | ~3.5 fold
CC(=O)NC(Cc1ccc(Br)c(Cl)c1)C(=O)N[C@@H](C)C(=O)N1CCC[C@H]1C(=O)N1CCC[C@H]1C(=O)N[C@@H](CCC(=O)O)C(=O)N[C@@H](Cc1c[nH]cn1)C(=O)N[C@@H](CO)C(=O)N[C@H](C(=O)N[C@@H](C)C(N)=O)[C@@H](C)OP(=O)(O)O (stereo partly shown) | Mitogen-activated protein kinase 1 (MAPK1, Homo sapiens, UniProt P28482) | enzyme activity, inhibitor | – | 10 µM | – | inhibition | 0.69%
CCN(Cc1ccccc1)C(=O)CCc1nc(CN2CCN(C(=O)Cc3ccc(OC)c(OC)c3)CC2)no1 | KCNQ2 | potassium current, activator, whole-cell patch clamp | CHO, stable | 20 µM | baseline: current before compound | current fold increase | 2.08 ± 0.1
